Measured values pooled from the literature.
Numbered parts are unrelated; each lists some results of a single study. Substitutions count along the parent as printed.

Block 1
Target: RNA binding protein fox-1 homolog 2, RRM domain, GST-SBP tag (RBFOX2, Homo sapiens, UniProt O43251-10, residues 100-194)
Technique: RNA Bind-n-Seq
Molecule type: RNA
Medium: in vitro
Tested at: 365 nM
Notes: natural RNA segment, single round, ends assumed
Reference: no-protein control
Direction: higher = stronger binding
Constant ends, left off below: GGGAGUUCUACAGUCCGACGAUC … UGGAAUUCUCGGGUGCCAA
Residues (chain): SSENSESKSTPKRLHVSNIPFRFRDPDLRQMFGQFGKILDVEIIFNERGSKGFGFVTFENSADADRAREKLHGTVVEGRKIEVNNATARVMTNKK
| Sequence | RBNS enrichment (R) |
| --- | --- |
| CCGGAAGGUGCCAGCAAUGAGACUGAGCGAGACUAGGGCUGGCACUUGGCUGCCCGCCUUCCCAGUGCCCCGGGACAUCAGAGGCAGGUGGGCAAGGGCUGCGGCUCUGC | 0.42 |
| GGUUUGGGUGGUGUGCCUGCAGACUUCAUUUGUGCCAAUGUAUUACUGUAGAGUCGCUCUGUUUCCUUCAACUGUAUUUAUUGCUGCGUUUCUCAGCAUAAACUUAUCCC | 1.45 |
| AACUGAUUGUUUUGGAUAACUCAACAUGUUUUUCUUAAAUGCUGUUUUAGUAUUUUCUACCUCUUAAUAAGCACCAUAUUUUAGAUCUUGUAUAAAAAGUUGCCAUCUGC | 0.328 |
| CUUUUGAAUGAAUGAAAAAGGGUAUCUUGAUACCCAGAAUUCCCCCCAAAGUACGGGUAAUUCAACCUGCACAGUUUUCUUUCACUCAAAGUGUUCAGCACUUGUGAGUG | 0.946 |
| GGGUUUGGGCUAAGAUCUAAGACCCAGCAGAUAGGAGACAGCAGGUACCACCCACACAGCACAGCUCUUCAUUCACAGUCAAGAGUUUAGACUGCUCCAGCUGGGACAUC | 0.256 |
| UAAAAUGACCAGUUUUCAGAUUCACCUGUGCGUGUGCCCCCCACUCCCAUCCCACCCUGUUCUUUCCAUAGAACUUUUGAUAUCAGGCAAACGGUUUCCUUUUUGAGAUA | 1.06 |
| CCUAUCUCCCAUAGCCAUUGCUGGCCACCCCUCUCUGUCAAUCUGUGCGCUCUUUUGAUACAUACAUUUACCUGCUGUUUUUCUCAAAUAAAAGUUGCAAGCUACUGCUC | 0.986 |
| ACGACCUGCCGCGCCGAGGAGCGGCAUCUGUCCCGUUUCCCGAUUGGGUCUGUCGUCUCUCUCCGCCUAGCGACAGAUUCCUUCUAUUAAGGGAUUGGCUCGCUGAGUUC | 0.237 |
| UCUAACAACUCAAAUUUUGCUUUUUGAAGCUGUAUUUUUAAGUUAAGAAAAUAUAUUUUUGGUAUAACUUUUAUGAGAAAAAUAAAAUAUAUUCUGGUCCAAACUUCUAA | 0.635 |
| GUUGUAGCUGUCAACCCAUUGGUUGUCUUUAGAGAGUUAAUGUUGAAACAAGGAACUCUUGGUCAGACAAACGUGAUCAGCUGAAACACGUGUGCUUUUGUAGAGUUUAA | 0.437 |

Block 2
Target: CCND1, cyclin fold, Cln2 fusion (human)
Technique: yeast growth competition, sequencing
Medium: yeast
Notes: weak parent motif
Reference: not given
Direction: higher = stronger binding
Starting sequence: CDKN1C docking peptide (human); TSACRSLFGPVDH
| Change | normalised enrichment score |
| --- | --- |
| TSACKSLLGPVDH [R5K F8L] | -0.256 |
| TAACRSLFGPVDH [S2A] | 0.869 |
| TSAARSLFGPVDH [C4A] | 0.403 |
| TSACRSLAGPVDH [F8A] | 0.27 |

Block 3
Target: RING finger protein unkempt homolog, zinc fingers 1-6, GST-SBP tag (UNK, Homo sapiens, UniProt Q9C0B0, residues 30-357)
Sequence of UniProt Q9C0B0 (30-357, looked up): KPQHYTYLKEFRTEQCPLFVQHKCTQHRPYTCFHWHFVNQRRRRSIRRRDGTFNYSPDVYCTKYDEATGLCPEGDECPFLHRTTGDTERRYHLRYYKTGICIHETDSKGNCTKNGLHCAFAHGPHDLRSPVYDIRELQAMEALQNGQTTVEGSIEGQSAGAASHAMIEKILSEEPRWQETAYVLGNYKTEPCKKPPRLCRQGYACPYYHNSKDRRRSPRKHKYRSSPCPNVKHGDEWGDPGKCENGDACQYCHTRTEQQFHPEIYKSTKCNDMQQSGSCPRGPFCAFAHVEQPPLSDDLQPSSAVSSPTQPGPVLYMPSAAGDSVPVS
Technique: RNA Bind-n-Seq
Molecule type: RNA
Medium: in vitro
Tested at: not given
Notes: RNA with constant flanks, ends assumed
Reference: input RNA pool
Direction: higher = stronger binding
Constant ends, left off below: GGGAGUUCUACAGUCCGACGAUC … CAACAGAGGAUUGAGCAUCA
| Sequence | bound/input enrichment [ratio] |
| --- | --- |
| UUAAAUAUCUCUGGCUCAAGUGUUCACCCAGUAAAAGAAAGAUCCAGAAAGCACUGUUUUCCGCAUUACGUAUCUGUGUGUUACUGCUGUGUUAUUUACACUGUUUUGUAUUGUACAAUA | 0.155 |
| ACCACAGCACUUUGCAGGCAAGCAGGCCAAGAAGCCCUGUCAGUCCUCAGGUUCAGCAAGUCCCCGUGUCCUGAAAGCCACAGAAGUAAACAAGAGCUGCCGGCAGCUGAACAAUCGCUC | 0.144 |
| CCUUUCUGUUACUUGACUCUUCCAUUGCCUAUGAAAAAAGAACGUAGCUUGGAAGUUUAUUCCGUCCGAAUGGAUCCACUUGCUAAACCUAUGCAAUACAAAGUUAUUGUGCCCAAAAUU | 0.159 |
| AACAUUGUAUCAUAGUUCAUUCAUUUGCAGUGGAUCUUUGUUCCUUUUUACUGUGGUAAUUUCCGAAAUGAGUGUCAAGUUUGAAAUUAGAUCUGCUAAGUUGGGGUUUUGCUGCUUGAA | 0.52 |
| GAGUCUAACAACAUUUUCAUUUCCGAAAGGCCAACAGAUGUUCUCCAGACAGUCAAGUUAUCCGAUCUUUCCUCUAAUCAAUUAAUUGAUGAAAAUCAGCUGUAUCUGAUAGCCCACCUG | 0.193 |

Mixed results
| Substance | target | assay | test system | conditions | how to read | quantity | result |
| --- | --- | --- | --- | --- | --- | --- | --- |
| PhoQ, residues 284 288 289 292 302 303 TTSMTC | PhoP, residues 12 14 15 18 19 NFCKL (Escherichia coli, UniProt P23836) | Sort-seq, measured: YFP reporter | E. coli | PhoQ-PhoP variant library, together with: 10 µM Mg2+ | reference: high Mg2+ state, higher = stronger signaling | fold induction | 14.4 |

For quick reference, copied from above (block 1):
| Sequence | RBNS enrichment (R) |
| --- | --- |
| GGGUUUGGGCUAAGAUCUAAGACCCAGCAGAUAGGAGACAGCAGGUACCACCCACACAGCACAGCUCUUCAUUCACAGUCAAGAGUUUAGACUGCUCCAGCUGGGACAUC | 0.256 |
| UAAAAUGACCAGUUUUCAGAUUCACCUGUGCGUGUGCCCCCCACUCCCAUCCCACCCUGUUCUUUCCAUAGAACUUUUGAUAUCAGGCAAACGGUUUCCUUUUUGAGAUA | 1.06 |
| CCUAUCUCCCAUAGCCAUUGCUGGCCACCCCUCUCUGUCAAUCUGUGCGCUCUUUUGAUACAUACAUUUACCUGCUGUUUUUCUCAAAUAAAAGUUGCAAGCUACUGCUC | 0.986 |
